{"data": "Measurements collected from several papers", "note": "Every numbered part comes from another study and shows a few of its results, in no order."}
{"data": "Study 1", "target": "Interferon regulatory factor 7, full length, phosphomimetic (IRF7, Homo sapiens, UniProt Q92985, residues 1-503, S471D/S472D/S475D/S476D/S477D/S483D/S484D/S487D)", "technique": "protein-binding microarray", "molecule type": "double-stranded DNA, one strand shown", "matrix": "in vitro", "concentration": "2200 nM top", "notes": "60-bp whole probe", "with": "salmon DNA 0.4 mg/ml", "relative to": "random background probes", "reading": "higher = stronger binding", "constant ends, left off below": "GCCTAGCAC … GTCTTGATTCGCTTGACGCTGCTG", "UniProt Q92985, sequence (whole entry, unmodified, looked up)": "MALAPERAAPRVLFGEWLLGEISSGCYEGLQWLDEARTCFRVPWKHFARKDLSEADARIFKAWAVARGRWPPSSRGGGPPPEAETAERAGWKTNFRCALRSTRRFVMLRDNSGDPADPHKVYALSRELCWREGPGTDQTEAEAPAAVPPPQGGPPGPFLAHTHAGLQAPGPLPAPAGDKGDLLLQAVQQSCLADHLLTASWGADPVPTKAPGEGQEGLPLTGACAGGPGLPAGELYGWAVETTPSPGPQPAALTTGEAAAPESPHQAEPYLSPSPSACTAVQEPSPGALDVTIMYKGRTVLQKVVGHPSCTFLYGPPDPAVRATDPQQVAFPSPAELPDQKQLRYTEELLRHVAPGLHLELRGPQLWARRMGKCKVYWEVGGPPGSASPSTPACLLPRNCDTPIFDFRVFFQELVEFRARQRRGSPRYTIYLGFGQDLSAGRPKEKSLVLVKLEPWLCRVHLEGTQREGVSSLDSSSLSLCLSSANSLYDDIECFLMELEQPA"}
{"Oligonucleotide": "TCAATTTTGGTTTTCTCACTGTGCTAG", "fitted relative affinity": "2.62 z-score"}
{"Oligonucleotide": "TTGCTTGTGTTTATTGTGACGTGCTAG", "fitted relative affinity": "1.15 z-score"}
{"Oligonucleotide": "GACGGACTGGACAATCGGGACGTGCTA", "fitted relative affinity": "-0.415 z-score"}
{"Oligonucleotide": "GACGATCTCAGACTGGAGCCGTGCTAG", "fitted relative affinity": "-0.119 z-score"}
{"Oligonucleotide": "GACGGCTTCCTTATCCTGACGTGCTAG", "fitted relative affinity": "0.977 z-score"}
{"Oligonucleotide": "GACTGACTGGACTTTCGGGACGTGCTA", "fitted relative affinity": "2.32 z-score"}
{"Oligonucleotide": "TCACATTTTTTTTCATCACTGTGCTAG", "fitted relative affinity": "1.77 z-score"}
{"Oligonucleotide": "TTAGGTTTCCTTTTCCGTTAGTGCTAG", "fitted relative affinity": "5.29 z-score"}
{"Oligonucleotide": "GACGATCTCGGGTATCGAGACGTGCTA", "fitted relative affinity": "-0.0726 z-score"}
{"Oligonucleotide": "CCCCCAGGATTCAATTACCAGTGCTAG", "fitted relative affinity": "-0.708 z-score"}
{"data": "Study 2", "target": "Histone acetyltransferase KAT6A, winged helix 1, GST fusion (KAT6A, Homo sapiens, UniProt Q92794, residues 1-85)", "technique": "protein binding microarray", "molecule type": "double-stranded DNA, one strand shown", "matrix": "in vitro", "concentration": "not given", "notes": "8-mer, flanks averaged, mean of 2 arrays, mostly near background", "relative to": "not given", "reading": "higher = stronger binding", "Residues (chain)": "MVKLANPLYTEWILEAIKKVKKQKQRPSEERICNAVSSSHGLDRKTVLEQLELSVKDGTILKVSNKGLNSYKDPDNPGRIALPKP"}
{"Oligonucleotide": "AAATTATC", "E-score": -0.0482}
{"Oligonucleotide": "AGTAGGAA", "E-score": -0.229}
{"Oligonucleotide": "CCAACCTA", "E-score": -0.182}
{"Oligonucleotide": "AGGTTGCC", "E-score": 0.127}
{"Oligonucleotide": "CATCGGGC", "E-score": 0.204}
{"Oligonucleotide": "CAGACGGA", "E-score": 0.0983}
{"Oligonucleotide": "ATGTAAAG", "E-score": -0.106}
{"Oligonucleotide": "GCAGTAAA", "E-score": -0.188}
{"Oligonucleotide": "AGATTCTC", "E-score": -0.042}
{"Oligonucleotide": "ACAGCGGT", "E-score": 0.21}
{"Oligonucleotide": "CGAGAACC", "E-score": -0.0931}
{"Oligonucleotide": "ATAGGCAG", "E-score": -0.303}
{"Oligonucleotide": "TAACGTGA", "E-score": -0.0284}
{"data": "Study 3", "target": "Sal-like protein 4, full length isoform A (SALL4, Homo sapiens, UniProt Q9UJQ4, residues 1-1053)", "technique": "universal PBM", "molecule type": "double-stranded DNA, one strand shown", "matrix": "in vitro", "concentration": "600 nM", "notes": "8-mer, flanks averaged, mean of replicates", "reading": "higher = stronger binding", "UniProt Q9UJQ4, sequence (whole entry, looked up)": "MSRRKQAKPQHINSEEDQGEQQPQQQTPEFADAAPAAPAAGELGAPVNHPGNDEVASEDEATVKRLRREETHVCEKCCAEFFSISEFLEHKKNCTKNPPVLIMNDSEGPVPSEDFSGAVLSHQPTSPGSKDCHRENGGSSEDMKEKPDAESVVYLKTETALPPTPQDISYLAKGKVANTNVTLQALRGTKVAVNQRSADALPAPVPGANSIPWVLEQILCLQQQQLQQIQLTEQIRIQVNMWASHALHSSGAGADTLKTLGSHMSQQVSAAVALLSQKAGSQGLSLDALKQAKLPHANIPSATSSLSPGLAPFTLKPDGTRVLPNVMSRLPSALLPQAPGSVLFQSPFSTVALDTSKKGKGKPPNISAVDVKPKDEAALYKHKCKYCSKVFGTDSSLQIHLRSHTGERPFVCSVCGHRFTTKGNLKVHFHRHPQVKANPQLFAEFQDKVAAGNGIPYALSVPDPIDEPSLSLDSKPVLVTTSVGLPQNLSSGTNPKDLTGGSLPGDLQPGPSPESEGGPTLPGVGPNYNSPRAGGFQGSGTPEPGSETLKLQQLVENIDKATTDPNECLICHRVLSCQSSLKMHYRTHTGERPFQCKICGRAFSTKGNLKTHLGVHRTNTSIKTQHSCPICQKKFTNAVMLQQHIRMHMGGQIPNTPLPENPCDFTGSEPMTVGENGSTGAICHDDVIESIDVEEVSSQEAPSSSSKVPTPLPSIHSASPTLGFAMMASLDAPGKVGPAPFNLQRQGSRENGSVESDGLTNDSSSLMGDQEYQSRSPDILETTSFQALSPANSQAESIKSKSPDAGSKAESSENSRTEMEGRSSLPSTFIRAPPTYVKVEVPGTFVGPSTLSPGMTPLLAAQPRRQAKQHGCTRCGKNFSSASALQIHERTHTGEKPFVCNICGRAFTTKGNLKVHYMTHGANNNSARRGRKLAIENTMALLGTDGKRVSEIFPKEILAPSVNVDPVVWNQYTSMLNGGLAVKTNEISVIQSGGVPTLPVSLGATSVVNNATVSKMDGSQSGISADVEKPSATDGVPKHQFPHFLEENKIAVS"}
{"Oligonucleotide": "CAGATGAC", "E-score": -0.0417}
{"Oligonucleotide": "CGGGCGAG", "E-score": -0.333}
{"Oligonucleotide": "AAGCGAGA", "E-score": 0.0291}
{"Oligonucleotide": "GCACTACA", "E-score": -0.0241}
{"Oligonucleotide": "GAAGTTAC", "E-score": 0.0607}
{"data": "Other studies, line by line"}
{"Molecule": "PhoQ, residues 284 288 289 292 302 303 TVTVVA", "target": "PhoP, residues 12 14 15 18 19 NQFFI (Escherichia coli, UniProt P23836)", "test": "Sort-seq, measured: YFP reporter", "test system": "E. coli", "setting": "PhoQ-PhoP variant library, with: 10 µM Mg2+", "how to read": "relative to: high Mg2+ state, higher = stronger signaling", "endpoint": "fold induction", "value": 10.2}
